Experimental data from different studies.
Lines come from different studies, so protocols differ. ± gives the spread as reported.

| Molecule | cell line | assay | setting | IC50 |
| --- | --- | --- | --- | --- |
| COc1ccc(C[C@H]2COC(=O)[C@@H]2Cc2ccc(OCc3cn(CC(=O)NO)nn3)c(OC)c2)cc1OC | MV4-11 | cell growth or viability, CCK-8 | 48 h | > 5 µM |
| Cc1ccc2nc(NCCN)c3ncc(C)n3c2c1 | SGC-7901 | cell viability, MTT | 72 h | 7.1 ± 1.8 µM |
| CCN1CCC2(CC1)C/C(=N\N=C\c1ccc(N(C)C)cc1)c1ccccc1O2 | MCF7, HCT-116, PC-3, A549 | cell growth, MTT | range over cell lines | 48.5 to 80 µM |
| COc1cccc2c1C(=O)c1c(O)c3c(c(O)c1C2=O)C[C@@](O)(C(=O)CO)C[C@@H]3O[C@H]1C[C@H](N)[C@H](O)[C@H](C)O1 | SK-BR-3 | cell growth or viability, CCK-8 | – | 0.186 µM |
| CCOC(=O)OCOc1c(-c2ccc(-c3ccc(OC(F)(F)F)cc3)cc2)c(C)nc2cc(OC)c(F)cc12 | HeLa and HCT-116 average | cell viability, MTT | 48 h | 21 µM |
| c1ccc2[nH]c(-c3ccc(OCc4cn(CCN5CCOCC5)nn4)cc3)nc2c1 | DND41 | cell growth or viability, MTS | 72 h | 49.1 µM |
| CCCNC(=O)Nc1ccc(S(=O)(=O)Oc2cccnc2C(C)C)cc1 | HT-1080 | cell growth or viability, SRB | 48 h | 2.3 µM |
| C=CC1=C(C)c2cc3[nH]c(cc4nc(cc5[nH]c(cc1n2)c(C)c5CCC(=O)O)C(CCC(=O)O)=C4C)c(C)c3C=C | RPE-1 | cell viability, resazurin | 48 h, dark | > 100 µM |
| COc1cc(/C=C/C(=O)CC(=O)/C=C/c2ccc(O)c(OC)c2)ccc1O | SGC-7901 | cell growth or viability, MTT | 72 h | 22.5 µM |
| Cc1ccc(C(CS(=O)(=O)c2ccccc2)=NN=C2N=C(c3ccc(Br)cc3)CS2)cc1 | WM 266-4 | cell growth or viability, MTT | 48 h | 4.52 µM |
| CC(=O)[C@]1(O)Cc2c(O)c3c(c(O)c2[C@@H](O[C@H]2C[C@H](N)[C@H](O)[C@H](C)O2)C1)C(=O)c1ccccc1C3=O | human mesenchymal stem cells | cell viability, CCK-8 | 48 h | 0.378 µM |
| CN(C)C/C=C/C(=O)Nc1cc2c(Nc3ccc(F)c(Cl)c3)ncnc2cc1O[C@H]1CCOC1 | NCI-H1975 | cell growth or viability, MTT | 72 h | 0.49 µM |
| CCNC(=O)Nc1ccc(S(=O)(=O)Oc2cccnc2I)cc1 | HT-1080 | cell growth or viability, SRB | 48 h | 1.1 µM |
| Nc1c(S(=O)(=O)O)cc(Nc2cccc(S(N)(=O)=O)c2)c2c1C(=O)c1ccccc1C2=O | COS-7 (serum-starved) | Thr308 dephosphorylation | 35 min | 132 ± 1 µM |
| O=C(C[C@@H]1C/C=C/CCC(=O)O[C@H](c2ccccc2)CNC1=O)NCc1ccc(Cl)cc1 | C3H10T1/2 | ShhN-induced alkaline phosphatase, inhibitor | 120 h, together with: ShhN at EC50 | 6.4 µM |
| O=C(N/N=C/c1ccc(OCCCN2CCCCC2)cc1)Nc1cc2c(Nc3ccc(F)c(Cl)c3)ncnc2cc1O[C@H]1CCOC1 | NCI-H1975 | cell growth or viability, MTT | 72 h | 2.2 µM |
| COc1cc([C@@H]2c3cc4c(cc3[C@@H](O[C@@H]3O[C@@H]5CO[C@@H](C)O[C@H]5[C@H](O)[C@H]3O)[C@H]3COC(=O)[C@H]23)OCO4)cc(OC)c1O | DND41 | cell growth or viability, MTS | 72 h | 1 µM |
| β-secretase inhibitor IV | H4 overexpressing human APP Swedish | Abeta38 formation | 24 h | 0.092 µM |
| COc1ccc(C[C@H]2COC(=O)[C@@H]2Cc2ccc(OCC(=O)NCC(=O)Nc3ccccc3N)c(OC)c2)cc1OC | Kasumi 1 | cell growth or viability, CCK-8 | 48 h | > 5 µM |
| O=C(Cc1ccc(F)cc1)Nc1nc2ccccc2n1Cc1ccc(Cl)cc1 | MDA-MB-231-HRE-Luc cells | HIF reporter gene, inhibitor | 24 h, hypoxia 1% O2 | 1.58 ± 0.75 µM |

| Molecule | cell line | assay | setting | IC50 |
| --- | --- | --- | --- | --- |
| CCCCc1oc2ccccc2c1C(=O)c1cc(I)c(OCCNCC)c(I)c1 | rabbit alveolar macrophages | surfactant protein A degradation | 1 h | 10.4 ± 1.7 µM |
| CCCCCCCCCCCCC/C=C/[C@@H](O)[C@@H](N)COP(=O)(O)O | human primary astrocytes | forskolin-induced cAMP production, agonist, AlphaScreen | together with: forskolin 10 µM | 0.00117 µM |
| COc1ccc(C[C@H]2COC(=O)[C@@H]2Cc2ccc(OCCCCC(=O)NO)c(OC)c2)cc1OC | Kasumi 1 | cell growth or viability, CCK-8 | 48 h | > 5 µM |
| Cc1cc(-c2ccccc2)c2ccc3c(-c4ccccc4)cc(C)nc3c2n1 | A549, B16-F10, Caco-2, HT-29, MDA-MB-231 | cell viability | dark, all lines | > 100 µM |
| c1ccc(P(=NCc2ccccn2)(c2ccccc2)c2ccccc2)cc1 | A2780cisR (cisplatin-resistant) | cell growth, MTT | 74 h, 1% DMSO | > 50 µM |
| O=C(COc1ccc(-c2nc3ccc(Cl)cc3[nH]2)cc1F)N1CCOCC1 | DND41 | cell growth or viability, MTS | 72 h | > 100 µM |
| COc1cc2ncnc(Nc3ccc(F)c(Cl)c3)c2cc1NC(=O)N/N=C/c1ccc(N(C)C)cc1 | NCI-H1975 | cell growth or viability, MTT | 72 h | 40.7 µM |
| O=c1[nH]nc(O)c2c(-c3ccc([N+](=O)[O-])cc3)c3n(c12)CCn1cccc1-3 | PC-3 | cell growth or viability, MTT | 48 h | 60.2 µM |
| CNC(=O)c1cc(Oc2ccc(NC(=O)Nc3ccc(Cl)c(C(F)(F)F)c3)cc2)ccn1 | MHCC97H cells | cell viability, MTT | concentration not given, together with: pralatrexate 1 | 0.1 µM |
| COc1cc(O)c2c(c1)O[C@H](c1ccc(O)cc1)CC2=O | BV-2 | NO release, inhibitor, Griess | LPS-stimulated | 85.8 µM |
| O=C1C(SCCO)=C(SCCO)C(=O)c2ccccc21 | hiPSC hepatic differentiation phase II | cell viability, CCK-8 | 48 h | 33.5 ± 7.43 µM |
| CCNC(=O)Nc1ccc(S(=O)(=O)Oc2cnccc2I)cc1 | HT-1080 | cell growth or viability, SRB | 48 h | 3.2 µM |
| C[C@]1([N+](=O)[O-])C(=O)c2ccc(F)cc2O[C@@H]1CC(=O)NC12CC3CC(CC(C3)C1)C2 | PC-3M | cell growth or viability, SRB | 96 h | 12.5 µM |
| CO[C@@]12[C@H](COC(N)=O)C3=C(C(=O)C(C)=C(N)C3=O)N1C[C@@H]1N[C@@H]12 | HCT-15 | cell growth or viability, XTT | 72 h | 3.53 µg/mL |
| COc1c(O)cc2cc1C[C@@H](C)C[C@H](OC)[C@H](O)[C@@H](C)/C=C(\C)[C@H](OC(N)=O)[C@@H](OC)CC/C=C(\C)C(=O)N2 | Kasumi 1 | cell growth or viability | – | 0.28 µM |
| O=C(Cc1ccc(Cl)cc1)Nc1nc2ccccc2n1Cc1ccc(Br)cc1 | MDA-MB-231-HRE-Luc cells | HIF reporter gene, inhibitor | 24 h, hypoxia 1% O2 | 3.58 ± 1.38 µM |
| COc1cc2ncnc(Nc3ccc(F)c(Cl)c3)c2cc1NC(=O)N/N=C/c1ccc(CN2CCN(C)CC2)cc1 | NCI-H1975 | cell growth or viability, MTT | 72 h | 15.3 µM |
| COc1cc(O)c(Cc2ccc(O)cc2)c2c1-c1ccc(O)cc1CC2 | BV-2 | NO release, inhibitor, Griess | LPS-stimulated | 2.96 µM |
| COc1cc(/C=C/C(=O)CC(=O)/C=C/c2ccc(OC(=O)C3=CC=C[CH]3[Fe][CH]3C=CC=C3)cc2)ccc1O (centres unmarked) | RKO | cell growth or viability, MTT | – | 11.1 µM |
| COc1cc(O)c2c(=O)c(O)c(-c3ccc(O)c(O)c3)oc2c1 | BV-2 | TNF-α release, inhibitor, ELISA | LPS-stimulated | 28.7 µM |

| Molecule | cell line | assay | setting | IC50 |
| --- | --- | --- | --- | --- |
| COc1cc(-c2nc3ccc(C(=O)Nc4ccc(C)cc4)cc3[nH]2)cc(OC)c1OC | MRC5 fetal lung fibroblasts | cytotoxicity, MTT | 72 h | 15.1 ± 1.62 µM |
| COc1cc2ncnc(Nc3ccc(F)c(Cl)c3)c2cc1NC(=O)N/N=C/c1ccc(CN2CCCCC2)cc1 | NCI-H1975 | cell growth or viability, MTT | 72 h | 63.4 µM |
| CC(C)(C)c1nc(-c2cccc(NS(=O)(=O)c3c(F)cccc3F)c2F)c(-c2ccnc(N)n2)s1 | WM 266-4 | cell growth or viability, MTT | 48 h | 16.5 µM |
| COc1ccc(/C=C/C(=O)CC(=O)/C=C/c2ccc(OC(=O)C3=CC=C[CH]3[Fe][CH]3C=CC=C3)c(OC)c2)cc1OC (centres unmarked) | RKO | cell growth or viability, MTT | – | 64.3 µM |
| Fc1ccc2nc(-c3ccc(OCc4cn(CCN5CCOCC5)nn4)cc3)[nH]c2c1 | DND41 | cell growth or viability, MTS | 72 h | 49.6 µM |
| O=c1[nH]cc(F)c(=O)[nH]1 | MDA-MB-435S | cell growth or viability, MTT | 72 h | 31 µM |
| C[C@]1([N+](=O)[O-])C(=O)c2cc(Cl)ccc2O[C@@H]1CC(=O)NC12CC3CC(CC(C3)C1)C2 | PC-3M | cell growth or viability, SRB | 96 h | 6.34 µM |
| O=C(C=Cc1ccccc1)C(=CC1=CC=C[CH]1[Fe][CH]1C=CC=C1)C(=O)/C=C/c1ccccc1 (centres unmarked) | RKO | cell growth or viability, MTT | – | 5.64 µM |
| CN(Cc1cnc2nc(N)nc(N)c2n1)c1ccc(C(=O)N[C@@H](CCC(=O)O)C(=O)O)cc1 | rat Synovial cell | cell growth or viability, CCK-8 | 48 h | 2.38 µM |
| [Ala11,D-Leu15]orexin B | rat cortical primary neurons | cAMP formation, antagonist | 15 min, together with: VIP 3 µM | 0.0229 ± 0.0016 µM |
| O=C(N/N=C/c1ccc(CN2CCOCC2)cc1)Nc1cc2c(Nc3ccc(F)c(Cl)c3)ncnc2cc1O[C@H]1CCOC1 | NCI-H1975 | cell growth or viability, MTT | 72 h | 65.2 µM |
| C[C@]1([N+](=O)[O-])C(=O)c2cccc(F)c2O[C@@H]1CC(=O)NC12CC3CC(CC(C3)C1)C2 | PC-3M | cell growth or viability, SRB | 96 h | 9.16 µM |
| COc1ccccc1C=C1SC(=O)N(CC(=O)Nc2ccc(C(=O)Nc3ccc(Cl)cc3)cc2)C1=O | HT-29, A549, HCT-116 | cell growth, MTT | range over cell lines | 13.6 to 17.8 µM |
| Fc1ccc2nc(-c3ccc(OCc4cn(CCN5CCOCC5)nn4)c(F)c3)[nH]c2c1 | DND41 | cell growth or viability, MTS | 72 h | 41.6 µM |
| COc1cc(/C=C/C(=O)/C(=C\C2=CC=C[CH]2[Fe][CH]2C=CC=C2)C(=O)/C=C/c2ccc(OC)c(OC)c2)ccc1O (centres unmarked) | RKO | cell growth or viability, MTT | – | 5.66 µM |
| CC/C(=C(\c1ccccc1)c1ccc(OCCN(C)C(=O)CCCCOc2ccc3[nH]cc(CCNC(C)=O)c3c2)cc1)c1ccccc1 | HT-1080 | cell survival, MTT | day 9, dosed days 2, 4, 7 | 26.3 µM |
| CCCCCCNC(=O)n1cc(F)c(=O)[nH]c1=O | HT-1080 | cell growth or viability, MTT | 72 h | 67 µM |
| O=C(N/N=C/c1ccc(OCCCN2CCOCC2)cc1)Nc1cc2c(Nc3ccc(F)c(Cl)c3)ncnc2cc1O[C@H]1CCOC1 | NCI-H1975 | cell growth or viability, MTT | 72 h | 24.8 µM |
| NC1(c2ccc(-c3nc4ccn5c(=O)[nH]nc5c4cc3-c3ccccc3)cc2)CCC1 | MDA-MB-231 LINK-A PIP3-BM +/+ | AKT phosphorylation, AlphaScreen SureFire, measured: AKT pSer473 over total AKT | together with: EGF 200 nM | 16.2 µM |

For quick reference, copied from above:
| Molecule | cell line | assay | setting | IC50 |
| --- | --- | --- | --- | --- |
| COc1cc(/C=C/C(=O)CC(=O)/C=C/c2ccc(O)c(OC)c2)ccc1O | SGC-7901 | cell growth or viability, MTT | 72 h | 22.5 µM |
| C[C@]1([N+](=O)[O-])C(=O)c2cccc(F)c2O[C@@H]1CC(=O)NC12CC3CC(CC(C3)C1)C2 | PC-3M | cell growth or viability, SRB | 96 h | 9.16 µM |
| COc1ccc(C[C@H]2COC(=O)[C@@H]2Cc2ccc(OCCCCC(=O)NO)c(OC)c2)cc1OC | Kasumi 1 | cell growth or viability, CCK-8 | 48 h | > 5 µM |
| O=c1[nH]cc(F)c(=O)[nH]1 | MDA-MB-435S | cell growth or viability, MTT | 72 h | 31 µM |
| CCNC(=O)Nc1ccc(S(=O)(=O)Oc2cnccc2I)cc1 | HT-1080 | cell growth or viability, SRB | 48 h | 3.2 µM |
| CCCCCCNC(=O)n1cc(F)c(=O)[nH]c1=O | HT-1080 | cell growth or viability, MTT | 72 h | 67 µM |
| Fc1ccc2nc(-c3ccc(OCc4cn(CCN5CCOCC5)nn4)c(F)c3)[nH]c2c1 | DND41 | cell growth or viability, MTS | 72 h | 41.6 µM |
